{"data": "Published values from different studies", "CNR2 full length, on cells Q63R": "CNR2 full length, on cells Q63R (Homo sapiens, UniProt P34972)", "rpoA/rpoB/rpoC/rpoZ": "rpoA/rpoB/rpoC/rpoZ (Escherichia coli)", "rpoC": "rpoC 1-1407 (Escherichia coli, UniProt P0A8T7)", "rpoC β' subunit": "rpoC β' subunit 1-1407 (Escherichia coli, UniProt P0A8T7)", "B1": "SoxS (Escherichia coli, UniProt P0A9E2); chain MSHQKIIQDLIAWIDEHIDQPLNIDVVAKKSGYSKWYLQRMFRTVTHQTLGDYIRQRRLLLAAVELRTTERPIFDIAMDLGYVSQQTFSRVFRRQFDRTPSDYRHRL", "B2": "greB 1-158 (Escherichia coli, UniProt P30128); chain MKTPLVTREGYEKLKQELNYLWREERPEVTKKVTWAASLGDRSENADYQYNKKRLREIDRRVRYLTKCLENLKIVDYSPQQEGKVFFGAWVEIENDDGVTHRFRIVGYDEIFGRKDYISIDSPMARALLKKEVGDLAVVNTPAGEASWYVNAIEYVKP", "B3": "traR 1-73 (Escherichia coli, UniProt P41065); chain MSDEADEAYSVTEQLTMTGINRIRQKINAHGIPVYLCEACGNPIPEARRKIFPGVTLCVECQAYQERQRKHYA", "B4": "rnhB (Escherichia coli, UniProt P10442); sequence looked up; chain MIEFVYPHTQLVAGVDEVGRGPLVGAVVTAAVILDPARPIAGLNDSKKLSEKRRLALYEEIKEKALSWSLGRAEPHEIDELNILHATMLAMQRAVAGLHIAPEYVLIDGNRCPKLPMPAMAVVKGDSRVPEISAASILAKVTRDAEMAALDIVFPQYGFAQHKGYPTAFHLEKLAEHGATEHHRRSFGPVKRALGLAS", "B5": "dksA A35C (Escherichia coli, UniProt P0ABS1); Alexa Fluor 546 label; sequence looked up; chain MQEGQNRKTSSLSILAIAGVEPYQEKPGEEYMNECQLAHFRRILEAWRNQLRDEVDRTVTHMQDEAANFPDPVDRAAQEEEFSLELRNRDRERKLIKKIEKTLKKVEDEDFGYCESCGVEIGIRRLEARPTADLCIDCKTLAEIREKQMAG", "B6": "dksA (Escherichia coli, UniProt P0ABS1); sequence looked up; chain MQEGQNRKTSSLSILAIAGVEPYQEKPGEEYMNEAQLAHFRRILEAWRNQLRDEVDRTVTHMQDEAANFPDPVDRAAQEEEFSLELRNRDRERKLIKKIEKTLKKVEDEDFGYCESCGVEIGIRRLEARPTADLCIDCKTLAEIREKQMAG", "note": "Lines come from different studies, so protocols differ. ± gives the spread as reported."}
{"Substance": "ARRB1 (Homo sapiens, UniProt P49407)", "partner": "CNR2 full length, on cells Q63R", "assay": "BRET", "conditions": "no exogenous GRK, with: 2-AG", "measurement": "span of concentration-response", "result": "56.1 ΔBRET.s"}
{"Substance": "uvrA (Escherichia coli, UniProt P0A698)", "partner": "rpoA/rpoB/rpoC/rpoZ", "assay": "dynamic light scattering", "measurement": "molecule per partner", "result": 2}
{"Substance": "B1 (SoxS)", "partner": "RNA polymerase holoenzyme (Escherichia coli)", "assay": "in vitro transcription", "scale": "reference: without SoxS, higher = more activation", "measurement": "transcription activity", "result": "0.15 ratio"}
{"Substance": "B2 (greB 1-158)", "partner": "rpoC", "assay": "cryo-EM", "measurement": "binding", "result": "binds"}
{"Substance": "MoaA peptide (Staphylococcus aureus)", "partner": "moaA D98A/G340A (Staphylococcus aureus, UniProt P69848)", "assay": "MoaA/MoaC coupled assay", "conditions": "200 µM", "scale": "reference: 8-mer peptide, higher = more activity", "measurement": "restored activity", "result": "> 5 fold"}
{"Substance": "B3 (traR 1-73)", "partner": "rpoC β' subunit", "assay": "crystal structure", "conditions": "without ppGpp", "measurement": "binding", "result": "binds"}
{"Substance": "B4 (rnhB)", "partner": "rpoC", "assay": "cryo-EM", "measurement": "binding", "result": "binds"}
{"Substance": "B5 (dksA A35C)", "partner": "rpoA/rpoB/rpoC/rpoZ core RNAP del943-1130 in rpoC (Escherichia coli)", "assay": "fluorescence anisotropy", "conditions": "pH 7.5, 30 °C, NaCl 50 mM, apparent", "measurement": "Kd", "result": "42 ± 7 nM"}
{"Substance": "ARRB2 (Homo sapiens, UniProt P32121)", "partner": "CNR2 full length, on cells Q63R", "assay": "BRET", "conditions": "no exogenous GRK, with: 2-AG", "measurement": "span of concentration-response", "result": "205 ΔBRET.s"}
{"Substance": "B6 (dksA)", "partner": "rpoC β' subunit", "assay": "crystal structure", "conditions": "without ppGpp", "measurement": "binding", "result": "binds"}
{"Substance": "uvrB (Escherichia coli, UniProt P0A8F8)", "partner": "rpoA/rpoB/rpoC/rpoZ", "assay": "dynamic light scattering", "measurement": "molecule per partner", "result": 1}
